Experimental data pooled from the literature.
Every numbered part comes from another study and shows a few of its results, in no order. Values joined by “and” are separate records of one study, mostly repeats; a detail may differ.

Block 1 — concentration: 1 µM; quantity: remaining binding
Compound: CC(=O)c1c(NS(C)(=O)=O)c2cc(-c3ccc(Cl)cc3)c(-c3ccc(Cl)cc3Cl)nc2n(C)c1=O
Serine/threonine-protein kinase 17B (STK17B, Homo sapiens, UniProt O94768); cell-free assay, competition with immobilised ligand: 100%
Tyrosine-protein kinase ABL1, non-phosphorylated (ABL1, Homo sapiens, UniProt P00519, T315I); cell-free assay, competition with immobilised ligand: 86%
Tyrosine-protein kinase ABL1, phosphorylated (ABL1, Homo sapiens, UniProt P00519, F317I); binding: 85%
Mitogen-activated protein kinase kinase kinase 5 (MAP3K5, Homo sapiens, UniProt Q99683); cell-free assay, competition with immobilised ligand: 85%
Leucine-rich repeat serine/threonine-protein kinase 2 (LRRK2, Homo sapiens, UniProt Q5S007, G2019S); cell-free assay, competition with immobilised ligand: 100%
Cyclin-dependent kinase 4 (CDK4, Homo sapiens, UniProt P11802); cell-free assay, competition with immobilised ligand: 63%
Focal adhesion kinase 1 (PTK2, Homo sapiens, UniProt Q05397); cell-free assay, competition with immobilised ligand: 100%
Megakaryocyte-associated tyrosine-protein kinase (MATK, Homo sapiens, UniProt P42679); cell-free assay, competition with immobilised ligand: 83%
SRSF protein kinase 3 (SRPK3, Homo sapiens, UniProt Q9UPE1); cell-free assay, competition with immobilised ligand: 100%
cAMP-dependent protein kinase catalytic subunit alpha (PRKACA, Homo sapiens, UniProt P17612); cell-free assay, competition with immobilised ligand: 100%
Tyrosine-protein kinase JAK1, JH2 (JAK1, Homo sapiens, UniProt P23458); cell-free assay, competition with immobilised ligand: 93%
Ephrin type-B receptor 6 (EPHB6, Homo sapiens, UniProt O15197); cell-free assay, competition with immobilised ligand: 100%
Phosphatidylinositol 4,5-bisphosphate 3-kinase catalytic subunit alpha isoform (PIK3CA, Homo sapiens, UniProt P42336, E545A); cell-free assay, competition with immobilised ligand: 100%
Mitogen-activated protein kinase 3 (MAPK3, Homo sapiens, UniProt P27361); cell-free assay, competition with immobilised ligand: 100%

Block 2 — Structure (SMILES): COc1cc2ncc(-c3ccccc3)nc2cc1OC; effect on: enzyme activity; mode: inhibitor; concentration: 0.5 µM; relative to: control; quantity: remaining activity
Dual serine/threonine and tyrosine protein kinase (DSTYK, Homo sapiens, UniProt Q6XUX3): 82.7%
Serine/threonine-protein kinase D3 (PRKD3, Homo sapiens, UniProt O94806): 91.1%
Mitogen-activated protein kinase kinase kinase kinase 5 (MAP4K5, Homo sapiens, UniProt Q9Y4K4): 99.8%
Serine/threonine-protein kinase VRK1 (VRK1, Homo sapiens, UniProt Q99986): 106%
Phosphorylase b kinase gamma catalytic chain, liver/testis isoform (PHKG2, Homo sapiens, UniProt P15735): 97.1%
Dual specificity tyrosine-phosphorylation-regulated kinase 2 (DYRK2, Homo sapiens, UniProt Q92630): 95.9%
Serine/threonine-protein kinase PLK1 (PLK1, Homo sapiens, UniProt P53350): 98.5%
Tyrosine-protein kinase HCK (HCK, Homo sapiens, UniProt P08631): 96.9%
RAF proto-oncogene serine/threonine-protein kinase (RAF1, Homo sapiens, UniProt P04049): 106%
Receptor-interacting serine/threonine-protein kinase 2 (RIPK2, Homo sapiens, UniProt O43353): 90.3%
Mitogen-activated protein kinase kinase kinase 9 (MAP3K9, Homo sapiens, UniProt P80192): 85.4%
Serine/threonine-protein kinase TAO1 (TAOK1, Homo sapiens, UniProt Q7L7X3): 104%
Serine/threonine-protein kinase Sgk3 (SGK3, Homo sapiens, UniProt Q96BR1): 89.7%
Fibroblast growth factor receptor 2 (FGFR2, Homo sapiens, UniProt P21802): 103%
Insulin receptor-related protein (INSRR, Homo sapiens, UniProt P14616): 99.2%
BDNF/NT-3 growth factors receptor (NTRK2, Homo sapiens, UniProt Q16620): 99.5%
Activin receptor type-1 (ACVR1, Homo sapiens, UniProt Q04771): 99.3%
Serine/threonine-protein kinase ULK1 (ULK1, Homo sapiens, UniProt O75385): 84.5%
Platelet-derived growth factor receptor beta (PDGFRB, Homo sapiens, UniProt P09619): 87.5%

Block 3 — SMILES: CCOc1ccc(Nc2c3c(nc4ccccc24)CCC3)cc1; organism: Leishmania infantum; technique: qPCR, delta Ct; host: golden hamster, infected; route: oral; dose: 10 mg/kg/day; time: 10 days; relative to: microglobulin reference gene; quantity: relative mRNA level
measured: IL10; liver: 12.5 and 11.6 and 13.7 and 12.3 and 11.9
measured: IL4; liver: 1.61 and 0.588 and 0.591 and 4.36 and 0.532 and 1.07
measured: IL4; spleen: -0.753 and -0.452 and -0.515 and -0.348 and -0.469 and -0.706
measured: TGF-beta; spleen: -0.064 and -0.272 and 0.032 and 0.219 and -0.19 and -0.263
measured: IFN-gamma; liver: 10.2 and 11.4 and 13.7 and 9.41 and 10.7
measured: IL10; spleen: 9.36 and 10.4 and 8.37 and 7.09 and 6.96

Block 4 — cell line: A-375; concentration: 100 µM; time: 18 h; quantity: viability
CC(Cc1cccc(C(F)(F)F)c1)NCCOC(=O)c1ccccc1 (stereo not shown): 8.3%
O=c1c(-c2ccc(O)cc2)coc2cc(O[C@@H]3O[C@H](CO)[C@@H](O)[C@H](O)[C@H]3O)ccc12: 98.1%
COc1cc(/C=C/C(=O)N2CCN(CC(=O)N3CCCC3)CC2)cc(OC)c1OC: 101%
c1ccc(C2CN3CCSC3=N2)cc1 (stereo not shown): 66.1%
CO/N=C(\C(=O)N[C@@H]1C(=O)N2C(C(=O)OC(C)OC(C)=O)=C(COC(N)=O)CS[C@H]12)c1ccco1 (stereo partly shown): 106%
N#CCC(C1CCCC1)n1cc(-c2ncnc3[nH]ccc23)cn1 (stereo not shown): 76.4%
C[C@H]1[C@H](NC(=O)/C(=N\OC(C)(C)C(=O)O)c2csc(N)n2)C(=O)N1S(=O)(=O)O: 100%

A few entries again (block 3):
measured: IL10; spleen: 9.36 and 10.4 and 8.37 and 7.09 and 6.96
measured: IL4; spleen: -0.753 and -0.452 and -0.515 and -0.348 and -0.469 and -0.706
measured: TGF-beta; spleen: -0.064 and -0.272 and 0.032 and 0.219 and -0.19 and -0.263
measured: IL4; liver: 1.61 and 0.588 and 0.591 and 4.36 and 0.532 and 1.07
measured: IL10; liver: 12.5 and 11.6 and 13.7 and 12.3 and 11.9
measured: IFN-gamma; liver: 10.2 and 11.4 and 13.7 and 9.41 and 10.7
